Measured values gathered from unrelated publications.
Compare with care: the assays were run in different laboratories. Several values in a cell are separate wells, animals, samples, runs or records. ± marks the error that the study gave.
Oprm1: Mu-type opioid receptor (Oprm1, Mus musculus, UniProt P42866)
CES1: Liver carboxylesterase 1 (CES1, Homo sapiens, UniProt P23141)
Gamma carbonic anhydrase: Gamma carbonic anhydrase (Vibrio cholerae, UniProt Q9KVT1)

Compound = O=C(N[C@@H]1CC[C@@]2(O)[C@H]3Cc4cccc5c4[C@@]2(CCN3CC2CC2)[C@H]1O5)c1ccnc(Br)c1; tested on = Oprm1; test = ligand displacement, radioligand; conditions = cell membranes; quantity = Ki; value = 0.0245 µM
Compound = CC[C@@H]1CN2CCc3c([nH]c4cccc(OC)c34)[C@H]2C[C@@H]1/C(=C\OC)C(=O)OC; tested on = CES1; test = enzyme activity, inhibitor; quantity = Ki; value = 8.6 µM
Compound = Nc1ncnc2c1ncn2[C@@H]1O[C@H](COP(=O)(O)OP(=O)(O)O)[C@@H](O)[C@H]1O; tested on = prs (Mycobacterium tuberculosis, UniProt P9WKE3); test = enzyme activity, noncompetitive inhibitor; conditions = with: ribose 5-phosphate varied, saturating ATP; quantity = Ki; value = 320 µM
Compound = CNC(C)C(=O)c1ccccc1 (centres unmarked); tested on = SLC18A2 (Homo sapiens, UniProt Q05940); test = ligand displacement, radioligand; conditions = cell membranes; quantity = Ki; value = > 1000 µM
Compound = C[C@H]1CN(C2CCCCCCC2)CC[C@@]1(C)c1cccc(O)c1; tested on = OPRM1 (Homo sapiens, UniProt P35372); test = ligand displacement, radioligand; quantity = Ki; value = 0.516 µM
Compound = CC(C)=CCN1CCC2(C)c3cc(O)ccc3CC1C2C (single isomer, unassigned; (-)); tested on = Tmem97 (Rattus norvegicus, UniProt Q5U3Y7); test = binding; system = rat liver P2 membranes; conditions = σ1 blocked, with: [3H]DTG 5 nM; quantity = Ki; value = 0.0581 ± 0.004 µM
Compound = Cc1ccc(NC(=O)NCc2cn(CCCCS(N)(=O)=O)nn2)cc1; tested on = Gamma carbonic anhydrase; test = inhibitor; quantity = Ki; value = 15.3 µM
Compound = CCCCCCC(C)(C)c1ccc([C@@H]2C[C@H](O)CC[C@H]2CCCO)c(O)c1; tested on = Cnr2 (Rattus norvegicus, UniProt Q9QZN9); test = ligand displacement, radioligand; conditions = cell membranes; quantity = Ki; value = 0.0011 µM
Compound = CCCCn1cc(C(=O)c2cccc3ccccc23)c2cccc(O)c21; tested on = Cnr1 (Mus musculus, UniProt P47746); test = ligand displacement, radioligand; conditions = cell membranes; quantity = Ki; value = 0.122 µM
Compound = COc1ccc(OCc2cn(CCCCS(N)(=O)=O)nn2)cc1; tested on = Gamma carbonic anhydrase; test = inhibitor; quantity = Ki; value = 40.3 µM
Compound = C=C[C@H]1CN2CCc3c([nH]c4cccc(OC)c34)[C@@H]2C[C@@H]1/C(=C\OC)C(=O)OC; tested on = CES1; test = reversible inhibitor; conditions = with: oseltamivir substrate; quantity = Ki; value = 26.1 ± 7.34 µM
Compound = C=CCN1CCC2(C)c3cc(O)ccc3CC1C2C (single isomer, unassigned; (-)); tested on = Tmem97 (Mus musculus, UniProt Q8VD00); test = ligand displacement, radioligand; conditions = cell membranes; quantity = Ki; value = 6.72 µM
Compound = Cc1cc(C(=O)N[C@@H]2CC[C@@]3(O)[C@H]4Cc5cccc6c5[C@@]3(CCN4CC3CC3)[C@H]2O6)ccn1; tested on = Oprm1; test = ligand displacement, radioligand; conditions = cell membranes; quantity = Ki; value = 0.039 µM
Compound = CCCCn1cc(C(=O)c2cccc3ccccc23)c2ccccc21; tested on = Cnr1 (Mus musculus, UniProt P47746); test = ligand displacement, radioligand; conditions = cell membranes; quantity = Ki; value = 0.0129 µM
Compound = CN[C@@](C)(C[18F])C(=O)O; tested on = DU-145 tumour model; system = host not given, pancreas; conditions = 15 min, tumour-bearing; quantity = tracer uptake; value = 51 %ID/g
Compound = COc1cccc(NC(=O)NCc2cn(CCCCS(N)(=O)=O)nn2)c1; tested on = Gamma carbonic anhydrase; test = inhibitor; quantity = Ki; value = 22.2 µM
Compound = C=CCN1CCC2(C)c3cc(O)ccc3CC1C2C (single isomer, unassigned; (+)); tested on = Tmem97 (Rattus norvegicus, UniProt Q5U3Y7); test = ligand displacement, radioligand; quantity = Ki; value = > 10 µM
Compound = NS(=O)(=O)CCCn1cc(CNC(=O)Nc2ccc(C(F)(F)F)cc2)nn1; tested on = Gamma carbonic anhydrase; test = inhibitor; quantity = Ki; value = 17.3 µM
Compound = C=CCN1CCC2(C)c3cc(O)ccc3CC1C2C (single isomer, unassigned; (+)); tested on = Sigmar1 (Mus musculus, UniProt O55242); quantity = Ki; value = 0.0164 ± 0.0013 µM
Compound = CCCc1cc(O)c2c(c1)OC(C)(C)[C@@H]1CC=C(C)C[C@@H]21; tested on = Cnr1 (Rattus norvegicus, UniProt P20272); test = ligand displacement, radioligand; quantity = Ki; value = 0.0463 µM
Compound = NS(=O)(=O)CCCCn1cc(CNC(=O)Nc2ccc(C(F)(F)F)cc2)nn1; tested on = Gamma carbonic anhydrase; test = inhibitor; quantity = Ki; value = 16.8 µM
Compound = COc1ccc(C[C@@H](NC[C@H](O)c2cc(O)cc(O)c2)C(C)C)cc1; tested on = ADRB2 (Homo sapiens, UniProt P07550); test = binding; quantity = Ki; value = no binding
Compound = CCC(=O)C(CC(C)N(C)C)(c1ccccc1)c1ccccc1 (centres unmarked); tested on = ABCB1 (Homo sapiens, UniProt P08183); conditions = 1 min; quantity = Ki; value = 18 µM and ~18 µM
Compound = COc1cccc(NC(=O)NCc2cn(CCCS(N)(=O)=O)nn2)c1; tested on = Gamma carbonic anhydrase; test = inhibitor; quantity = Ki; value = 9.4 µM
Compound = CN[C@@H](C)C/C=C/c1cncc(OC)c1; tested on = CHRNA1/CHRNG/CHRND (Homo sapiens, UniProt P02708+P07510+Q07001); test = binding, radioligand binding; system = TE-671, cell membranes; conditions = with: [3H]epibatidine; quantity = Ki; value = > 100 µM
Compound = NC(N)=Nc1ccc2[nH]c3c(c2c1)C[C@@]1(O)[C@H]2Cc4ccc(O)c5c4[C@@]1(CCN2CC1CC1)[C@H]3O5; tested on = OPRK1 (Homo sapiens, UniProt P41145); test = ligand displacement, radioligand; conditions = cell membranes; quantity = Ki; value = 0.00067 µM

Some of these lines once more:
Compound = Nc1ncnc2c1ncn2[C@@H]1O[C@H](COP(=O)(O)OP(=O)(O)O)[C@@H](O)[C@H]1O; tested on = prs (Mycobacterium tuberculosis, UniProt P9WKE3); test = enzyme activity, noncompetitive inhibitor; conditions = with: ribose 5-phosphate varied, saturating ATP; quantity = Ki; value = 320 µM
Compound = CCCc1cc(O)c2c(c1)OC(C)(C)[C@@H]1CC=C(C)C[C@@H]21; tested on = Cnr1 (Rattus norvegicus, UniProt P20272); test = ligand displacement, radioligand; quantity = Ki; value = 0.0463 µM
Compound = Cc1ccc(NC(=O)NCc2cn(CCCCS(N)(=O)=O)nn2)cc1; tested on = Gamma carbonic anhydrase; test = inhibitor; quantity = Ki; value = 15.3 µM
Compound = COc1cccc(NC(=O)NCc2cn(CCCCS(N)(=O)=O)nn2)c1; tested on = Gamma carbonic anhydrase; test = inhibitor; quantity = Ki; value = 22.2 µM
